# Measured values collected from several papers.
Compound,test,test system,conditions,quantity,result
O=C([O-])CN1CCN(CC(=O)[O-])CCN(CC(=O)NCC2CCC(C(=O)N[C@@H](Cc3ccc4ccccc4c3)C(=O)NCCCC[C@H](NC(=O)N[C@@H](CCC(=O)O)C(=O)O)C(=O)O)CC2)CCN(CC(=O)[O-])CC1.[177Lu+3] (stereo partly shown),99mTc-DTPA plasma clearance,human,concentration not given,patients with GFR increase,26%
O=C(c1ccc(F)c(F)c1Nc1ccc(I)cc1F)N1CC(O)([C@@H]2CCCCN2)C1,,human patients,"oral, 1 mg/kg, patients aged at least sample B years",patients with AE leading to withdrawal,0%
CCN(CCO)CCCC(C)Nc1ccnc2cc(Cl)ccc12 (stereo not shown),,"human, newly diagnosed glioblastoma","oral, 200 mg/dose, platelet decrease grade 1, with RT and TMZ",patients with adverse event,66%
C[C@]1(O)C[C@@](N)(c2ccc(-c3nc4n(c3-c3ccccc3)COc3ccncc3-4)cc2)C1,,"human, advanced or metastatic solid tumours","dose not given, intermittent dose escalation total",patients with grade ≥3 TEAE,85.7%
Cn1cncc1-c1c(F)cncc1NC(=O)c1c(N)nn2cc(F)cnc12,,human patients,"oral, 220 mg once daily, 2 weeks on 1 week off",patients grade ≥3 Hyponatremia,0%
COc1ccc(-c2c(-c3ccc(C#N)c(F)c3)nc(N3CCC(N)CC3)n(C)c2=O)cc1F,measured: cerebrovascular accident,human patients,"oral, 60 mg, dose expansion",patients with serious TEAE,0%
CCN(Cc1nc2c(N)nc3cc(-c4cc[nH]n4)ccc3c2[nH]1)C(C)=O,grade 1-2 neutrophilia,human,"intratumoral, dose not given",patients with adverse event,38%
CN[C@@H](C)C(=O)N[C@H]1CN(S(=O)(=O)c2cccc(S(=O)(=O)N3CC[C@H]4CC[C@@H](C(=O)NC(c5ccccc5)c5ccccc5)N4C(=O)[C@@H](NC(=O)[C@H](C)NC)C3)c2)CC[C@H]2CC[C@@H](C(=O)NC(c3ccccc3)c3ccccc3)N2C1=O,,"human, advanced solid tumours",20 mg,patients with treatment-related asthenia,0%
C[C@@H]1OC(=O)NN=C1c1ccc(-c2ccc(F)cc2)c(C(F)(F)F)c1,"phase I trial, measured: Pneumonitis worst grade 3",human patients,5 mg loading then 0.25 mg daily,patients with adverse event,0%
O=C1Nc2cc3[nH]nc(-c4ccncc4)c3cc2CN1Cc1ccccc1,CTCAE v4.03,"human, relapsed or refractory advanced solid tumours","intravenous, 4.8 mg/kg",patients with photopsia,0%
Cc1cn([C@H]2O[C@@H](CO[P@@](=O)(N[C@@H](C)C(=O)OC(C)C)Oc3ccccc3)[C@H](O)[C@H]2F)c(=O)[nH]c1=O,measured: Inflammation,human,10 mg,patients with TEAE,0%
NC(=O)[C@H]1CCN(c2ncnc(N)c2F)C[C@@H]1N1CCC[C@@H](Nc2cc(Cl)cc(C(F)(F)F)c2)C1=O,,human patients,"oral, 20.5 mg twice daily, grade ≥3",patients with anemia,100%
Cn1ncc(-c2nc(N[C@H]3CC[C@H](N)CC3)ncc2Cl)c1CC1CC1,measured: treatment-related Fatigue,human patients phase I,dose not given,patients with adverse events,12.9%
COc1ncnn2ccc(-c3cnc4nc(C)n(Cc5nnc([C@@H](C)F)o5)c4c3)c12,,human,"oral, dose not given, grade 3",patients with hypotension,7.1%
CN(C)C(=O)c1cc2cnc(Nc3ccc(N4CCNCC4)cn3)nc2n1C1CCCC1,"measured: Thrombocytopenia, AESI","human, HR+/HER2− advanced breast cancer","oral, dose not given, grade 3, CTCAE v4.03",patients with adverse event,0.6%
CCS(=O)(=O)Nc1ccc(Oc2ccc(F)cc2F)c(-c2cn(C)c(=O)c3[nH]ccc23)c1,measured: Cellulitis,"human, relapsed/refractory AML","oral, dose not given, trial, with: alone or with venetoclax",patients with serious adverse event,5%
COc1c(C)cnc(Cn2cc(C#CCCOP(=O)(O)O)c3c(Cl)nc(N)nc32)c1C,measured: vomiting,"human, advanced solid tumours","concentration not given, at least possibly drug-related",patients with adverse event,29%
CCN1[C@@H](C(=O)NC23CCC(C(=O)O)(CC2)CC3)[C@H](c2cccc(Cl)c2F)[C@]2(C(=O)Nc3cc(Cl)ccc32)C12CCCCC2,measured: any-grade treatment-related oral mucositis,"human, advanced solid tumours","dose not given, phase I, all patients",patients with adverse event,4.8%
C=CC(=O)Nc1cc(Nc2nccc(Nc3cc(Cl)c(F)cc3C(C)(C)O)n2)c(OC)cc1N1CC[C@@H](N(C)C)C1,,human patients,"oral, 100 mg, treatment-emergent adverse events",patients with fatigue,11.1%

# Some of these lines once more:
Compound,test,test system,conditions,quantity,result
Cn1ncc(-c2nc(N[C@H]3CC[C@H](N)CC3)ncc2Cl)c1CC1CC1,measured: treatment-related Fatigue,human patients phase I,dose not given,patients with adverse events,12.9%
COc1ncnn2ccc(-c3cnc4nc(C)n(Cc5nnc([C@@H](C)F)o5)c4c3)c12,,human,"oral, dose not given, grade 3",patients with hypotension,7.1%
